Measurements pooled from the literature.
pIC50: −log10 of the molar value.

| SMILES | tested on | test | test system | conditions | how to read | measurement | value |
| --- | --- | --- | --- | --- | --- | --- | --- |
| C=CC(=O)Nc1cccc(Cn2ncc3cnc(Nc4cnn(CCOC)c4)nc32)c1 | ANKK1 human | binding, KINOMEscan |  | 100 nM | lower = stronger binding | percent of control | 100% |
| CC[C@H](C)[C@@H]1NC(=O)[C@@H]([C@@H](C)O)NC(=O)CNC(=O)[C@H](CC(=O)O)NC(=O)CNC(=O)[C@H](CC(=O)O)NC(=O)CNC(=O)[C@H]2CCCCN2C(=O)[C@@H](NC(=O)[C@H](CC(=O)O)NC(=O)/C=C/CCCCCCCCCC(C)C)CNC(=O)[C@@H]2CCCN2C1=O | Staphylococcus aureus | broth microdilution | MRSA USA300, Mueller-Hinton broth, Mg2+ 10 mg/L | 16 h, 37 °C, with: Ca2+ 1.0 mM |  | MIC | 8 µg/mL |
| CNS(=O)(=O)Nc1nccc(Cc2c(C)c3ccc(Oc4ncccc4F)cc3oc2=O)c1F | Capan-2 | cell viability |  | 7 days |  | pIC50 | 8.51 |
| CN[C@H](CC(C)C)C(=O)N[C@H]1C(=O)N[C@@H](CC(N)=O)C(=O)N[C@H]2C(=O)N[C@H]3C(=O)N[C@H](C(=O)N[C@H](C(=O)O)c4cc(O)cc(O)c4-c4cc3ccc4O)[C@H](O)c3ccc(c(Cl)c3)Oc3cc2cc(c3O[C@@H]2O[C@H](CO)[C@@H](O)[C@H](O)[C@H]2O[C@H]2C[C@](C)(N)[C@H](O)[C@H](C)O2)Oc2ccc(cc2Cl)[C@H]1O | Virgibacillus | broth microdilution | DSM 28587 | 24 h, aerobic, 30 °C, BHI medium |  | MIC | 0.25 µg/mL |
| C[C@@H]1C(=O)O[C@@H](C)/C=C/C=C\[C@@H](C)[C@@H]2C=C[C@@H]3C[C@@]4(C)O[C@H]4[C@@H](C)[C@H]3[C@@H]2C(=O)C(Cl)(Cl)C1=O | Staphylococcus aureus |  | MRSA clinical isolate | resistant, OXA, CIP, MXF, ERY, CLI, DAP, VAN |  | MIC | 0.05 µg/mL |
| CCCCCCCCCCCC[N+](C)(C)CCCCCCOc1cc(OCCCCCC[N+](C)(C)CCCCCCCCCCCC)cc(OCCCCCC[N+](C)(C)CCCCCCCCCCCC)c1.[Br-].[Br-].[Br-] | Enterococcus faecalis |  | OG1RF |  |  | MIC | 16 µM |
| C=C[C@]1(C)C[C@@H](OC(=O)CSc2ccc(NC(=O)c3ccco3)cc2)[C@]2(C)[C@H](C)CC[C@]3(CCC(=O)[C@H]32)[C@@H](C)[C@@H]1O | Mycoplasma gallisepticum |  | chicken lung isolates | 20 mg/kg to chickens |  | MIC | 0.00195 µg/mL |
| COc1ccc(NC(=O)COc2cccc(OCC(C)C)c2)cc1 | Pichia kudriavzevii | microbial growth, broth dilution | ATCC6258 |  |  | MIC | > 128 µg/mL |
| COC1CN([C@H]2CC[C@H]([C@@]3(C)Oc4c(Cl)cc(C(=O)NCc5c(SC)cc(C)[nH]c5=O)c(C)c4O3)CC2)C1 |  | RNA-seq, measured: EPB41L5 mouse homolog | mouse, HT-1376 xenograft, whole blood | dose not given | relative to: vehicle | log2 fold change | 4.34 |
| CCCCCCCCCCCC[N+](C)(C)CCCCCCCCCCOc1cc(OCCCCCCCCCC[N+](C)(C)CCCCCCCCCCCC)cc(OCCCCCCCCCC[N+](C)(C)CCCCCCCCCCCC)c1.[Br-].[Br-].[Br-] | Enterococcus faecalis |  | OG1RF |  |  | MIC | 250 µM |
| C=C(NC(=O)c1csc(-c2nc3c(cc2O)-c2nc(cs2)C(=O)NC(C(C)O)C(=O)NC(=C(C)OC)c2nc(cs2)C(=O)NC2c4nc(cs4)C(=O)NC(COC(=O)c4c5c6c(cccc6n4O)COC(=O)C(OC4CC(C)(O)C(N(C)C)C(C)O4)C2OC5)c2nc-3cs2)n1)C(N)=O (stereo not shown) | Streptococcus pneumoniae |  | -4, penicillin-resistant | used for PK-PD modelling |  | MIC | 0.0156 µg/mL |
| Cc1c(CN(C)C(=O)/C=C/c2cnc3c(c2)CC(N)C(=O)N3)oc2ccccc12 (stereo not shown) | Acinetobacter baumannii | broth microdilution | AR-0299 |  |  | MIC | 32 µg/mL |
| Cc1ncsc1-c1ccc(C(C)NC(=O)C2CC(O)CN2C(=O)C(NC(=O)CCCCCCCCCCN2CCCC(Nc3ncc(Cl)c(Nc4ccccc4S(=O)(=O)C(C)C)n3)C2)C(C)(C)C)cc1 (stereo not shown) | 22Rv1 | RNA-seq, measured: RNF43 mRNA |  | concentration not given | relative to: DMSO | log2 fold change | -1.48 |
| CCCCCCCCn1cc[n+](CCCCOc2cc(OCCCC[n+]3ccn(CCCCCCCC)c3)cc(OCCCC[n+]3ccn(CCCCCCCC)c3)c2)c1.[Br-].[Br-].[Br-] | Enterococcus faecalis |  | OG1RF |  |  | MIC | 0.5 µM |
| CN1CCCNC(=O)c2cccc(c2)C(=O)NCCCN(C)CCCNc2cccc3c2C(=O)c2cccc(c2C3=O)NCCC1 | SAS | RNA-Seq, measured: LUC7L mRNA |  | 1 µM, 6 h | relative to: untreated cells | log2 fold change | 0.574 |
| CO[C@@H]1OC[C@@H](O)[C@H](O)[C@H]1O | Helicobacter pylori | microbial growth, broth dilution |  |  |  | MIC | > 125 µg/mL |
| CC1C=CC=CC(C)C2C=CC3CC(C)(O)C(Cl)C(C)C3C2C(=O)C(Cl)(Cl)C(=O)C(C)C(=O)O1 (stereo not shown) | Staphylococcus aureus |  | MSSA clinical isolate | PEN SXT TET resistant |  | MIC | 0.05 µg/mL |
| CCCCCC[N+](C)(C)CCCCCCOc1cc(OCCCCCC[N+](C)(C)CCCCCC)cc(OCCCCCC[N+](C)(C)CCCCCC)c1.[Br-].[Br-].[Br-] | Enterococcus faecalis |  | OG1RF |  |  | MIC | 4 µM |
| Nc1ncc(-c2cc(-c3cnn(CC(F)(F)F)c3)ncc2F)nc1C(=O)NC1CNCC(F)C1 (stereo not shown) | MLK2 | KINOMEscan |  | 1 µM | relative to: DMSO control | remaining binding | 71% |

A few entries again:
| SMILES | tested on | test | test system | conditions | how to read | measurement | value |
| --- | --- | --- | --- | --- | --- | --- | --- |
| CCCCCCCCCCCC[N+](C)(C)CCCCCCCCCCOc1cc(OCCCCCCCCCC[N+](C)(C)CCCCCCCCCCCC)cc(OCCCCCCCCCC[N+](C)(C)CCCCCCCCCCCC)c1.[Br-].[Br-].[Br-] | Enterococcus faecalis |  | OG1RF |  |  | MIC | 250 µM |
| C=C(NC(=O)c1csc(-c2nc3c(cc2O)-c2nc(cs2)C(=O)NC(C(C)O)C(=O)NC(=C(C)OC)c2nc(cs2)C(=O)NC2c4nc(cs4)C(=O)NC(COC(=O)c4c5c6c(cccc6n4O)COC(=O)C(OC4CC(C)(O)C(N(C)C)C(C)O4)C2OC5)c2nc-3cs2)n1)C(N)=O (stereo not shown) | Streptococcus pneumoniae |  | -4, penicillin-resistant | used for PK-PD modelling |  | MIC | 0.0156 µg/mL |
